Literature values as cited in several papers.
Each line is one published result; not all experiments were run side by side. ± marks the error that the study gave.

`CC(=O)N[C@H](CSSC[C@H](N)C(=O)O)C(=O)N[C@H](C)C(=O)N[C@H](CCCNC(=N)N)C(=O)N[C@H](CCCNC(=N)N)C(=O)N[C@H](CCCNC(=N)N)C(=O)N[C@H](C)C(=O)N[C@H](CCCNC(=N)N)C(N)=O` — result for ectopic calcification: “decreased” (5/6 nephrectomized rat; dose not given).
With `C=CC(OS(=O)(=O)O)c1ccc(OC)cc1` (centres unmarked) the scaled Vmax was 0.06 µmol/h/g liver (human, liver; sulfonation).
`CC1=C(C2=C(C)C(=O)c3c(cc(O)c(O)c3C(C)C)C2=O)C(=O)c2cc(O)c(O)c(C(C)C)c2C1=O` (racemic) — result for “spleen size reduction”: 15 ± 2% (B6 Bcl-2-transgenic mouse; 60 µmol/kg).
The catalytic efficiency of `C=CC(OC1OC(C(=O)O)C(O)C(O)C1O)c1ccc(OC)cc1` (centres unmarked) is reported as 438 mL/h/g liver (male rat, liver; glucuronidation).
`[2H]c1c(NS(C)(=O)=O)c([2H])c2c(C(=O)c3ccc(OCCCN(CCCC)CCCC)cc3)c(CCCC)oc2c1[2H]`: “inter-atrial conduction time prolongation” 13 ms (dog paroxysmal AF model; dose not given, pacing cycle length 200 ms).
`Cc1sc(-c2ccc(C(F)(F)F)cc2)nc1-c1nn[nH]c1C#N`: “fasting blood glucose” “decreased” (ZDF rat; dose not given).
For `Cc1ccc(C(C)C)cc1.O=C(N=P(c1ccccc1)(c1ccccc1)c1ccccc1)c1ccccn1.[Cl-].[Cl][Ru+]`, “tumour volume reduction” read 56% (mouse, MDA-MB-231 xenograft; 5 mg/kg, 28 days, 14 doses every other day).
With `C[n+]1cn([C@@H]2O[C@H](COP(=O)(O)OP(=O)([O-])OP(=O)(O)OP(=O)(O)OC[C@H]3O[C@@H](n4cnc5c(=O)[nH]c(N)nc54)[C@H](O)[C@@H]3O)[C@@H](O)[C@H]2O)c2nc(N)nc(O)c21` the IC50 was 5 ± 0.5 µM (cap-dependent translation, inhibitor; rabbit reticulocyte lysate; no preincubation).
`CC(C)(O)c1ncc([S@](N)(=O)=NC(=O)Nc2c3c(cc4c2CCC4)CCC3)s1` gave an IC90 of 2.14 µM (IL-1β release; human whole blood; plasma concentration, added: LPS).
`CC#N.Cc1ccc(O)c(CN(CCN(Cc2ccccn2)Cc2ccccn2)Cc2ccccn2)c1.[Mn+2]` — result for “water exchange rate constant”: 1.9e+07 s⁻¹ (pH 4.8, 298 K).
`CC1=CCC23OC2(C)CCC2C(CN(C)C)C(=O)OC2C13.Cl` (centres unmarked) — result for “tumour growth inhibition”: 72 to 79% (Pliss lymphosarcoma, rat; intraperitoneal and intratumoral, dose not given).
Under “lowest dose reversing LTP maintenance”, `CCCCCCCCCCCCCC(=O)N[C@@H](CO)C(=O)N[C@H](C(=O)N[C@@H](Cc1ccc(O)cc1)C(=O)N[C@@H](CCCNC(=N)N)C(=O)N[C@@H](CCCNC(=N)N)C(=O)NCC(=O)N[C@@H](C)C(=O)N[C@@H](CCCNC(=N)N)C(=O)N[C@@H](CCCNC(=N)N)C(=O)N[C@@H](Cc1c[nH]c2ccccc12)C(=O)N[C@@H](CCCNC(=N)N)C(=O)N[C@@H](CCCCN)C(=O)N[C@@H](CC(C)C)C(=O)O)[C@@H](C)CC` is recorded as roughly 5 µM (hippocampal slices).
With `CC(C)C[C@@H](NC(=O)[C@H](C)NC(=O)CNC(=O)[C@@H](NC=O)C(C)C)C(=O)N[C@@H](C)C(=O)N[C@@H](C(=O)N[C@H](C(=O)N[C@@H](C(=O)N[C@@H](Cc1c[nH]c2ccccc12)C(=O)N[C@H](CC(C)C)C(=O)N[C@@H](Cc1c[nH]c2ccccc12)C(=O)N[C@H](CC(C)C)C(=O)N[C@@H](Cc1c[nH]c2ccccc12)C(=O)N[C@H](CC(C)C)C(=O)N[C@@H](Cc1c[nH]c2ccccc12)C(=O)NCCO)C(C)C)C(C)C)C(C)C` the EC50 was 0.0045 µM (H+/Na+ exchange; EYPC/EYPG liposomes).
`CO[C@@H]1[C@H](O)[C@@H](COP(=O)([O-])OP(=O)(O)CP(=O)(O)OP(=O)(O)OC[C@H]2O[C@@H](n3cnc4c(=O)[nH]c(N)nc43)[C@H](O)[C@@H]2O)O[C@H]1n1c[n+](C)c2c(O)nc(N)nc21` has an IC50 of 2.8 ± 0.2 µM (cap-dependent translation, inhibitor; rabbit reticulocyte lysate; no preincubation).

A few entries again:
With `C=CC(OS(=O)(=O)O)c1ccc(OC)cc1` (centres unmarked) the scaled Vmax was 0.06 µmol/h/g liver (human, liver; sulfonation).
`CC1=C(C2=C(C)C(=O)c3c(cc(O)c(O)c3C(C)C)C2=O)C(=O)c2cc(O)c(O)c(C(C)C)c2C1=O` (racemic) — result for “spleen size reduction”: 15 ± 2% (B6 Bcl-2-transgenic mouse; 60 µmol/kg).
